Experimental data from different studies.
Each line is one published result; not all experiments were run side by side. “And” joins repeats or separate records; there may be more than shown. ± marks the error that the study gave.

Compound	test	system	setting	scale	quantity	result
Cc1c(C(=O)O)ccc2c3n(nc12)[C@@H]1[C@H](C3)N(CC2CC2)[C@@]2(C(=O)Nc3cc(Cl)ccc32)[C@H]1c1cccc(Cl)c1F	–	female BALB/c nude mice, plasma	oral, 2 mg/kg once daily, 7 h, SJSA-1 tumour-bearing	–	plasma concentration	1.48 µM and 1.24 µM and 1.07 µM
O=c1[nH]c(=O)n([C@@H]2O[C@H](CO)[C@@H](O)[C@@H]2F)cc1CCCCC[18F]	–	nude mice, RG2 tumour, heart	intravenous, dose not given, 2 h	–	biodistribution	0.07 ± 0.04 %ID/g
Cn1cnc2ccc(Nc3c(F)ccc(NS(=O)(=O)N4CC(F)C4)c3Cl)c(Cl)c2c1=O	refers to: any adverse event any grade	human patients	dose not given, monotherapy trial	reference: patients	patients with adverse events	17%
C[C@H]1CN(C(=O)CC#N)[C@]12CCN(c1ncnc3[nH]ccc13)C2	–	healthy adults, plasma	oral, 6 mg single dose	–	Tmax, mean	0.9 h
NC[C@@H]1O[C@H](O[C@H]2[C@@H](O)[C@H](O[C@@H]3[C@@H](O)[C@H](N)C[C@H](N)[C@H]3O[C@H]3O[C@H](CO)[C@@H](O)[C@H](O)[C@H]3N)O[C@@H]2CO)[C@H](N)[C@@H](O)[C@@H]1O	–	NSG mice	dose not given, day 10 of treatment	–	body weight	24.4 g and 24.6 g and 23.2 g and 23.6 g
C[C@H]1OC[C@H](C2CCCC2)N[C@@H]1c1cccc(Cl)c1	shake-flask, LC-HRMS	aqueous buffer	16 h, pH 6.8	–	solubility	< 4 µM
O=C(N/N=C/c1ccccc1O)c1ccncc1	–	DMEM cell medium	57 µM, 12 h, 5 °C, post-preparative, autosampler	–	stability	94.2%
CCn1c(=O)c(-c2cc(NC(=O)Nc3ccccc3)c(F)cc2Br)cc2cnc(NC)cc21	–	human plasma	150 ng/mL, 24 h, 24 °C, low QC	–	short-term stability accuracy	9.29%
NC1(C(=O)N[C@@H](CCO)c2ccc(Cl)cc2)CCN(c2nc[nH]c3nccc2-3)CC1	–	metastatic CRPC patients	dose not given, any grade, treatment-related, all doses, with: enzalutamide 160 mg daily	–	incidence of Arthralgia	6.7%
N#Cc1ccc2c(c1)[C@H]1CCCN(C(=O)c3ccc4[nH]cnc4c3)[C@H]1C2	–	human	160 mg, day 15	–	median ACTH level	4.2 pmol/L
CCn1cc(C(=O)N2CCOCC2)c(=O)c2cc(NC3Cc4ccccc4C3)cnc21	–	human, GAD, PTSD or social anxiety disorder	dose not given, TEAE Somnolence, pooled phase trials	–	patients with adverse event	5.1%
CCn1c(=O)c(-c2cc(NC(=O)Nc3ccccc3)c(F)cc2Br)cc2cnc(NC)cc21	refers to: lipase increased	healthy human, matched to severe hepatic impairment	oral, 50 mg single dose	–	participants with grade ≥ 3 TEAE	0%
C=CC(=O)Nc1cc(Nc2nccc(-c3cn(C)c4ccccc34)n2)c(OC)cc1N(C)CCN(C)C	storage stability	human plasma	10 d, on ice, MQC level	–	recovery	69.9%
CCc1cc(C(=O)NC)c2nccc(N3CCc4c(cc(Cn5ccnc5)cc4-c4cn(C)nc4C(F)(F)F)C3=O)c2c1	–	Sprague Dawley rat	oral, 50 mg/kg once daily, day 5, 7-day toxicology study	–	body weight	251 ± 6.3 g
CCCOc1ccc(-c2ccc(C#N)cc2)cc1	–	Sprague-Dawley rat, female, placenta	5000 ng/mL in perfusate, 50 (unit not given), high dose, mixture of 21 LCMs	–	placental accumulation	590 ± 640 ng/g
CN1CCC[C@H](CN2c3ccccc3Sc3ccccc32)C1.Cl	–	ICR mouse female fasted, brain	oral, 16 mg/kg	–	AUC(0-t)	19.2 µg·h/mL
Cc1c(-c2ccc(N3CCc4cccc(C(=O)Nc5nc6ccccc6s5)c4C3)nc2C(=O)O)cnn1CC12CC3(C)CC(C)(C1)CC(OCCNCC[C@H](O)CO)(C3)C2	–	beagle dog, male, anaesthetised	intravenous infusion, 0.3 mg/kg/min, 120 min	reference: vehicle	QRS duration change	-2 ms
CNC(=O)c1ccc(-c2cnc3ncc(Cc4ccc5ncccc5c4)n3n2)cc1F	CTCAE v4.0, any causality	human cancer patients	oral, 600 mg twice daily, expansion, other tumours, RP2D	–	decreased appetite incidence (all grades)	22%
CCCCC[C@H](O)CC[C@@H]1[C@H]2Cc3cccc(OCC(=O)O)c3C[C@H]2C[C@H]1O	LC-MS/MS	female Japanese PAH patients, plasma	inhaled, 54 µg	–	geometric mean AUC(0-inf)	0.00086 µg·h/mL
CC(C(=O)NCC(=O)NCC(CNC(=O)CNC(=O)C(C)N1CCN(CC(=O)[O-])CCN(CC(=O)[O-])CCN(CC(=O)[O-])CC1)(CNC(=O)CNC(=O)C(C)N1CCN(CC(=O)[O-])CCN(CC(=O)[O-])CCN(CC(=O)[O-])CC1)CNC(=O)CNC(=O)C(C)N1CCN(CC(=O)[O-])CCN(CC(=O)[O-])CCN(CC(=O)[O-])CC1)N1CCN(CC(=O)[O-])CCN(CC(=O)[O-])CCN(CC(=O)[O-])CC1.[Gd+3].[Gd+3].[Gd+3].[Gd+3] (centres unmarked)	–	cynomolgus monkey, pons	dose not given, day 5	–	lanthanide concentration	0.031 ± 0.02 nmol/g

Compound	test	system	setting	scale	quantity	result
CN[C@@H](C)C(=O)N[C@H]1CN(C(=O)CC(C)C)CC[C@H]2CC[C@@H](C(=O)NC(c3ccccc3)c3ccccc3)N2C1=O	compartmental	SCID mice, MDA-MB-231 xenograft, plasma	oral, 100 mg/kg	–	systemic clearance	53.9 mL/h
Cc1cc(Nc2ncnc3ccc(NC4=NC(C)(C)CO4)cc23)ccc1Oc1ccn2ncnc2c1	refers to: Diarrhea	healthy volunteers	oral, dose not given, grade 1-2	–	drug-related adverse events	7.7%
O=C(N[C@H](Cc1c[nH]c2ccccc12)C(=O)Nc1ccncc1)c1ccc(-c2ccc(F)c(Cl)c2)cc1F	–	Swiss Webster mouse, female, fat	oral, 50 mg/kg, 8 h, 20% Kolliphor vehicle	–	concentration	18.6 µM
Cn1ncnc1[C@H]1c2n[nH]c(=O)c3cc(F)cc(c23)N[C@@H]1c1ccc(F)cc1	–	human patients, plasma	oral, 600 µg/m2 twice daily day 1, day 5, dose level DL3, median, with: temozolomide 20 mg/m2 daily days 2-6	–	AUCτ	0.132 µg·h/mL
O=C(Nc1ccc(OC(F)(F)Cl)cc1)c1cnc(N2CC[C@@H](O)C2)c(-c2ccn[nH]2)c1	refers to: Bilirubin increase, grade ≥2	human patients, dose-finding study	oral, sample F of sample B patients	–	patients with event	5.6%
CCC[C@H](C)[C@H]1CN(C(=O)OCC)C[C@@H](c2ccc(C(F)(F)F)cc2)N1	shake-flask, LC-HRMS	aqueous buffer	16 h, pH 6.8	–	solubility	< 4 µM
O=C(/C=C/CCc1ccc(O)cc1)/C=C/c1ccc(O)cc1	–	nude mouse MCF7 xenograft	40 mg/kg, day 6	–	body weight	19.9 ± 1.19 g
Cc1ccc(Sc2ccccc2N2CCNCC2)c(C)c1	refers to: any TEAE	healthy adult women	oral, 10 mg daily, 12 days	–	participants with TEAE	66.7%
COCCOc1cnc2ccn([C@H](C)c3nnc4c(F)cc(-c5cnn(C)c5)cn34)c(=O)c2c1	–	patients, plasma	oral, 25 mg once daily, day 28 24 h postdose	–	Ctrough	0.04 µg/mL
Cc1nonc1OCCNc1cc(N2CCOCC2)ccc1[N+](=O)[O-]	–	aqueous buffer	pH 7.4	–	solubility	< 0.0015 mg/mL
C[C@@H](c1ncncc1F)[C@](O)(Cn1cncn1)c1ccc(F)cc1F	–	human	oral, 400 mg, drug interaction trial	–	any TEAE	36.4%
Clc1cc(Cl)cc([C@@H]2COC[C@H](C3CCCCC3)N2)c1	shake-flask, LC-HRMS	aqueous buffer	16 h, pH 6.8	–	solubility	< 4 µM
CNC(=O)c1ccc(-c2cnc3ncc(Cc4ccc5ncccc5c4)n3n2)cc1F	–	Japanese patients	oral, 400 mg, any grade	–	Dyspnea dose reduction/interruption	1%
O=c1[nH]c(=O)n([C@H]2C[C@H](O)[C@@H](CO)O2)cc1CCCC[18F]	–	male CD-1 nu/nu mice, RG2 tumour, skin	intravenous, dose not given, 2 h	–	biodistribution	0.23 ± 0.04 %ID/g
Cc1ccc([C@@H]2O[C@H](CO)[C@@H](O)[C@H](O)[C@H]2O)cc1Cc1ccc(-c2ccc(F)cc2)s1	–	Japanese type 2 diabetes patients	400 mg, day 2, 24 h urine collection	reference: baseline	urinary magnesium excretion change	-13.1 mg
CCO[C@H]1CCN(Cc2c(OC)cc(C)c3[nH]ccc23)[C@H](c2ccc(C(=O)O)cc2)C1	–	healthy volunteers, plasma	oral, 200 mg single dose, geometric mean	–	total Cmax	3.49 µg/mL
CCOC(=O)N1C[C@@H]([C@H]2CCOC2)N[C@@H](C(C)C)C1	shake-flask, LC-HRMS	aqueous buffer	16 h, pH 6.8	–	solubility	> 750 µM
C=CCN1CC(=O)N2[C@@H](Cc3ccc(O)cc3F)C(=O)N(Cc3cccc(N4CC(N5CCN(CC)CC5)C4)n3)C[C@@H]2N1C(=O)NCc1ccccc1	–	advanced solid tumour patients	oral, 10 mg twice daily, grade ≥3, dose-escalation	–	treatment-related diarrhoea	0%
C=CC(=O)NC1CCN(c2ncc3ncnc(Nc4ccc(Oc5ccc6c(c5)ncn6C)c(C)c4)c3n2)CC1	refers to: GGT increased	human male	oral, dose not given, CTCAE on-treatment AEs	–	adverse events incidence	0%
CC(C)(C)C[C@@H]1COC[C@@H](c2ccc(C#N)cc2)N1	shake-flask, LC-HRMS	aqueous buffer	16 h, pH 6.8	–	solubility	> 750 µM

Compound	test	system	setting	scale	quantity	result
[18F]c1ccc(-c2ccc3c(c2)[nH]c2ccncc23)cn1	microPET/CT imaging	APP/PS1 mouse, AD model, brain	intravenous, 20 min	–	SUV	0.611 ± 0.129
COc1cc(NC(=O)CSc2nncn2C)cc(OC)c1OC	–	aqueous buffer	pH 7.4	–	solubility	1.39 mg/mL
O=C(Nc1nc2cccc(-c3ccc(CN4CCS(=O)(=O)CC4)cc3)n2n1)C1CC1	refers to: blood calcium increased	rheumatoid arthritis patients	oral, 300 mg once daily, 4 weeks, any relatedness	–	treatment-emergent adverse events	0%
O=C(CC1OCCN(Cc2ccccc2)C1=O)Nc1ccc2c(c1)OCCO2 (centres unmarked)	–	aqueous buffer	pH 7.4	–	solubility	0.0455 mg/mL
COc1ccc([C@@H](O)c2cc(-c3ncnc4cc(N5CCOCC5)ccc34)c(F)cc2Cl)nn1	–	locally advanced rectal cancer	all dose levels overall, with: capecitabine and radiotherapy	–	TEAE, general disorders	74%
O=C(O)CCC(=O)O.[2H]C([2H])([2H])Oc1cc(C)c2[nH]ccc2c1CN1CC[C@@H](C2CC2)C[C@H]1c1ccc(C(=O)O)cc1	multiple ascending dose	healthy Chinese subjects	100 mg twice daily	–	subjects with papular urticaria TEAE	0%
Cc1ccc(C(=O)N(CCCN)C(c2nc3snc(C)c3c(=O)n2Cc2ccccc2)C(C)C)cc1 (centres unmarked)	–	human patients	intravenous, 18 mg/day	–	grade ≥3 hyperbilirubinemia patients	0%
Fc1ccc([C@@H]2COC[C@H](c3ccc(-c4ccccc4)cc3)N2)cc1	shake-flask, LC-HRMS	aqueous buffer	16 h, pH 6.8	–	solubility	< 4 µM
CCCC1CCC(C2CCC(c3cc(F)c(F)c(F)c3)CC2)CC1 (centres unmarked)	–	rat, placenta	1000 ng/mL in perfusate, middle dose, mixture of 21 LCMs	–	placental accumulation	15.2 ± 19.7 ng/g
CCCCC1=NC2(CCCC2)C(=O)N1Cc1ccc(-c2ccccc2S(=O)(=O)Nc2noc(C)c2C)c(COCC)c1	–	healthy adult volunteers, plasma	oral, 50 mg, single dose, fed, crushed tablet	–	Tmax	4.24 h
Cc1cc([C@H]2C[C@H]3[C@@H](CF)SC(N)=N[C@@]3(c3ccc(F)cc3F)CO2)on1	–	129/SVE wild-type mouse, male	subcutaneous, 30 mg/kg, 9 h	–	CSF concentration	16 nM
CNCCOC12CC3(C)CC(C)(CC(Cn4ncc(-c5ccc(N6CCc7cccc(C(=O)Nc8nc9ccccc9s8)c7C6)nc5C(=O)O)c4C)(C3)C1)C2	–	beagle dog, male, anaesthetised	intravenous bolus, 0.03 mg/kg, 75 min	reference: baseline	mean arterial pressure change	0%
CCN1CCN(Cc2ccc(NC(=O)c3ccc(C)c(NC(=O)c4cncc(-c5cccs5)c4)c3)cc2C(F)(F)F)CC1	–	C57BL/6 mice, epithelial lining fluid	intraperitoneal, 15 mg/kg	–	apparent clearance	3.06 L/h/kg
c1ccc(-c2ccc([C@H]3COC[C@@H](C4CCCCC4)N3)cc2)cc1	shake-flask, LC-HRMS	aqueous buffer	16 h, pH 6.8	–	solubility	< 4 µM
C[C@H](CCC(=O)NCC(=O)O)[C@H]1CC[C@H]2[C@@H]3[C@H](O)C[C@@H]4C[C@H](O)CC[C@]4(C)[C@H]3C[C@H](O)[C@]12C	–	human, plasma	endogenous baseline diurnal	–	Cmin	0.0109 ± 0.0015 µM
CCOc1c([C@H](C)n2nc(C)c3c(N)ncnc32)cc(Cl)c(F)c1[C@@H]1CNC(=O)C1	refers to: QRS > 110 ms	previously treated B-cell malignancy	oral, dose not given, baseline below thresholds, all doses	–	share of patients	1.9%
COc1cc2nccc(Oc3ccc(NC(=O)c4cc5c(n(-c6ccccc6)c4=O)CCCC5=O)nc3)c2cc1OC	–	relapsed or refractory AML	oral, all dose levels	–	grade ≥3 Sepsis patients	20%
CC(C)(C(=O)N1CCOc2c(C#N)cncc2C1)C(F)F	–	healthy humans, both sexes, plasma	oral, 30 mg single dose, 3-fold dose increase	reference: 30 mg over 10 mg	Cmax dose proportionality ratio	3.6
FC(F)(F)c1ccc(CNc2ccc(Cc3c[nH]c4ncc(Cl)cc34)cn2)cn1	refers to: Vomiting	patients with advanced solid tumours, all cohorts	oral, 1000 mg/day, any grade	–	treatment-related adverse events	20%

Excerpt of the above:
Compound	test	system	setting	scale	quantity	result
C[C@H]1CN(C(=O)CC#N)[C@]12CCN(c1ncnc3[nH]ccc13)C2	–	healthy adults, plasma	oral, 6 mg single dose	–	Tmax, mean	0.9 h
NC[C@@H]1O[C@H](O[C@H]2[C@@H](O)[C@H](O[C@@H]3[C@@H](O)[C@H](N)C[C@H](N)[C@H]3O[C@H]3O[C@H](CO)[C@@H](O)[C@H](O)[C@H]3N)O[C@@H]2CO)[C@H](N)[C@@H](O)[C@@H]1O	–	NSG mice	dose not given, day 10 of treatment	–	body weight	24.4 g and 24.6 g and 23.2 g and 23.6 g
C[C@H]1OC[C@H](C2CCCC2)N[C@@H]1c1cccc(Cl)c1	shake-flask, LC-HRMS	aqueous buffer	16 h, pH 6.8	–	solubility	< 4 µM
O=C(N/N=C/c1ccccc1O)c1ccncc1	–	DMEM cell medium	57 µM, 12 h, 5 °C, post-preparative, autosampler	–	stability	94.2%
